Assay results pooled from the literature.
Organism: Enterococcus faecalis

Structure (SMILES)	technique	strain	time	setting	with	MIC
CC[C@H](C)[C@H](NC(=O)[C@H](CCCCN)NC(=O)[C@H](CCC(=O)O)NC(=O)[C@H](CCCCN)NC(=O)[C@H](CO)NC(=O)[C@H](CCCCN)NC(=O)[C@H](CCCNC(=N)N)NC(=O)[C@H](Cc1ccccc1)NC(=O)[C@H](Cc1ccccc1)NC(=O)[C@H](CC(=O)O)NC(=O)CNC(=O)[C@H](CC(C)C)NC(=O)[C@@H](N)CC(C)C)C(=O)NCC(=O)N[C@@H](CCCCN)C(=O)N[C@@H](CCC(=O)O)C(=O)N[C@@H](Cc1ccccc1)C(=O)N[C@@H](CCCCN)C(=O)N[C@@H](CCCNC(=N)N)C(=O)N[C@H](C(=O)N[C@H](C(=O)N[C@@H](CCC(N)=O)C(=O)N[C@@H](CCCNC(=N)N)C(=O)N[C@H](C(=O)N[C@@H](CCCCN)C(=O)N[C@@H](CC(=O)O)C(=O)N[C@@H](Cc1ccccc1)C(=O)N[C@@H](CC(C)C)C(=O)N[C@@H](CCCNC(=N)N)C(=O)N[C@@H](CC(N)=O)C(=O)N[C@@H](CC(C)C)C(=O)N[C@H](C(=O)N1CCC[C@H]1C(=O)N[C@@H](CCCNC(=N)N)C(=O)N[C@H](C(=O)N[C@@H](CCC(=O)O)C(=O)N[C@@H](CO)C(=O)O)[C@@H](C)O)C(C)C)[C@@H](C)CC)C(C)C)[C@@H](C)CC	–	ATCC 29212	–	highest concentration 50 µM	–	16.7 µM
CC[C@H]1OC(=O)[C@H](C)[C@@H](O[C@H]2C[C@@](C)(OC)[C@@H](O)[C@H](C)O2)[C@H](C)[C@@H](O[C@@H]2O[C@H](C)C[C@H](N(C)C)[C@H]2O)[C@](C)(O)C[C@@H](C)CN(C)[C@H](C)[C@@H](O)[C@]1(C)O	–	ATCC 2942	–	–	–	< 98 µg/mL
CN(C)[C@@H]1C(O)=C(C(N)=O)C(=O)[C@@]2(O)C(O)=C3C(=O)c4c(O)c(N)nc(Cl)c4C[C@H]3C[C@@H]12	broth microdilution CLSI	ATCC 29212	–	–	–	1 µg/mL
Cc1ccc2[nH]nc(-c3nnc(Nc4ccc([N+](=O)[O-])cc4)s3)c2c1	–	ATCC 2942	–	–	–	9.5 µg/mL
CN[C@H](CC(C)C)C(=O)N[C@H]1C(=O)N[C@@H](CC(N)=O)C(=O)N[C@H]2C(=O)N[C@H]3C(=O)N[C@H](C(=O)N[C@H](C(=O)O)c4cc(O)cc(O)c4-c4cc3ccc4O)[C@H](O)c3ccc(c(Cl)c3)Oc3cc2cc(c3O[C@@H]2O[C@H](CO)[C@@H](O)[C@H](O)[C@H]2O[C@H]2C[C@](C)(N)[C@H](O)[C@H](C)O2)Oc2ccc(cc2Cl)[C@H]1O	–	ATCC 29212	–	–	–	0.7 µg/mL
Cc1ncc(O)c2c1C[C@H]1C[C@H]3[C@H](N(C)C)C(O)=C(C(N)=O)C(=O)[C@@]3(O)C(O)=C1C2=O.Cl.Cl	broth microdilution CLSI	ATCC 29212	–	–	–	> 32 µg/mL
C[C@@H](O)[C@H]1C(=O)N2C(C(=O)O)=C(S[C@@H]3CN[C@H](C(=O)N(C)C)C3)[C@H](C)[C@H]12	broth microdilution	–	18 h	–	–	0.25 µg/mL
C[N+](C)(C)CCCN	–	BM4166, VanA vancomycin-resistant	–	–	lipoteichoic acid 100 µg/mL	> 800 µg/mL
CC(C)(O/N=C(\C(=O)N[C@@H]1C(=O)N2C(C(=O)[O-])=C(C[n+]3ccccc3)CS[C@H]12)c1csc(N)n1)C(=O)O	broth microdilution	–	18 h	–	–	32 µg/mL
CCNc1nc(Cl)c2c(c1O)C(=O)C1=C(O)[C@]3(O)C(=O)C(C(N)=O)=C(O)[C@@H](N(C)C)[C@@H]3C[C@@H]1C2.Cl.Cl.Cl	broth microdilution CLSI	ATCC 29212	–	–	–	0.063 µg/mL
CN[C@H](CC(C)C)C(=O)N[C@H]1C(=O)N[C@@H](CC(N)=O)C(=O)N[C@H]2C(=O)N[C@H]3C(=O)N[C@H](C(=O)N[C@H](C(=O)O)c4cc(O)cc(O)c4-c4cc3ccc4O)[C@H](O)c3ccc(c(Cl)c3)Oc3cc2cc(c3O[C@@H]2O[C@H](CO)[C@@H](O)[C@H](O)[C@H]2O[C@H]2C[C@](C)(N)[C@H](O)[C@H](C)O2)Oc2ccc(cc2Cl)[C@H]1O	–	ATCC 29212	–	1 strain	–	1 µg/mL
Cc1ccc2[nH]nc(-c3nnc(Nc4ccc(C)c(C)c4)s3)c2c1	–	ATCC 2942	–	–	–	75.2 µg/mL
COCCNc1nc(Cl)c2c(c1O)C(=O)C1=C(O)[C@]3(O)C(=O)C(C(N)=O)=C(O)[C@@H](N(C)C)[C@@H]3C[C@@H]1C2.Cl.Cl.Cl	broth microdilution CLSI	ATCC 29212	–	–	–	0.25 µg/mL
Cc1ccc2[nH]nc(-c3nnc(Nc4ccc(Cl)c(Br)c4)s3)c2c1	–	ATCC 2942	–	–	–	174 µg/mL
C=C/C=C(\C)CC[C@H]1C[C@@H](O)CC(=O)O1	broth microdilution	KCTC 3511	–	–	–	256 µg/mL

Repeated from above:
Structure (SMILES)	technique	strain	time	setting	with	MIC
CCNc1nc(Cl)c2c(c1O)C(=O)C1=C(O)[C@]3(O)C(=O)C(C(N)=O)=C(O)[C@@H](N(C)C)[C@@H]3C[C@@H]1C2.Cl.Cl.Cl	broth microdilution CLSI	ATCC 29212	–	–	–	0.063 µg/mL
